Results pooled from the literature.
Parts stem from different laboratories: compare values within a part only. Several values in a cell are separate wells, animals, samples, runs or records.

Set 1 — quantity: inhibition
SMILES: Cc1ccc(O)c(C)c1-c1cnc2[nH]c(-c3cnc(N4CCC(CN5CCN(c6cc7c(cc6F)n(C6CCC(=O)NC6=O)c(=O)n7C)CC5)CC4)nc3)cc2c1C#N (stereo not shown)
Target: Membrane-associated tyrosine- and threonine-specific cdc2-inhibitory kinase (PKMYT1, Homo sapiens, UniProt Q99640)
Sequence of UniProt Q99640 (whole entry, looked up): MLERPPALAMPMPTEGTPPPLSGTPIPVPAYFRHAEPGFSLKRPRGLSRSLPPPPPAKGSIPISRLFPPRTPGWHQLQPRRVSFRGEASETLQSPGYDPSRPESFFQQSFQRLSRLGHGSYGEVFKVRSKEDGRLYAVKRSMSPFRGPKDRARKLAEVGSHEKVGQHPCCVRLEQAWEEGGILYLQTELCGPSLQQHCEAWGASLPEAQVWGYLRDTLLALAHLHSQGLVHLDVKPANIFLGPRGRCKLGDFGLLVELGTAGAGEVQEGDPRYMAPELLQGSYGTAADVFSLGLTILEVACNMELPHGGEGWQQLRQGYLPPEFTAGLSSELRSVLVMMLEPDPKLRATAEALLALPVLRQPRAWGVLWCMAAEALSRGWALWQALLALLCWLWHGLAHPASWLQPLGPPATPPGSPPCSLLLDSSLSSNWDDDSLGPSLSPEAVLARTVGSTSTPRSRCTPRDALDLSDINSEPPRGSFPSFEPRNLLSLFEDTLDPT
0.00046 µM: 7.59%
0.01235 µM: 85.6%
cell-free assay, inhibitor, TR-FRET; 51 pM: -0.458%
0.03704 µM: 95.4%
cell-free assay, inhibitor, TR-FRET; 4.12 nM: 55.1%
cell-free assay, inhibitor, TR-FRET; 1 µM: 99.2%
0.00412 µM: 54.4%
cell-free assay, inhibitor, TR-FRET; 37.04 nM: 98%
cell-free assay, inhibitor, TR-FRET; 12.35 nM: 88.5%
cell-free assay, inhibitor, TR-FRET; 152 pM: 1.67%

Set 2 — read-out: enzyme activity; quantity: inhibition
Compound: NC/C(=C\F)COc1cc(Cn2c(=S)[nH]c(=O)c3[nH]ccc32)ccc1Cl
Target: Myeloperoxidase (MPO, Homo sapiens, UniProt P05164)
Sequence of UniProt P05164 (whole entry, looked up): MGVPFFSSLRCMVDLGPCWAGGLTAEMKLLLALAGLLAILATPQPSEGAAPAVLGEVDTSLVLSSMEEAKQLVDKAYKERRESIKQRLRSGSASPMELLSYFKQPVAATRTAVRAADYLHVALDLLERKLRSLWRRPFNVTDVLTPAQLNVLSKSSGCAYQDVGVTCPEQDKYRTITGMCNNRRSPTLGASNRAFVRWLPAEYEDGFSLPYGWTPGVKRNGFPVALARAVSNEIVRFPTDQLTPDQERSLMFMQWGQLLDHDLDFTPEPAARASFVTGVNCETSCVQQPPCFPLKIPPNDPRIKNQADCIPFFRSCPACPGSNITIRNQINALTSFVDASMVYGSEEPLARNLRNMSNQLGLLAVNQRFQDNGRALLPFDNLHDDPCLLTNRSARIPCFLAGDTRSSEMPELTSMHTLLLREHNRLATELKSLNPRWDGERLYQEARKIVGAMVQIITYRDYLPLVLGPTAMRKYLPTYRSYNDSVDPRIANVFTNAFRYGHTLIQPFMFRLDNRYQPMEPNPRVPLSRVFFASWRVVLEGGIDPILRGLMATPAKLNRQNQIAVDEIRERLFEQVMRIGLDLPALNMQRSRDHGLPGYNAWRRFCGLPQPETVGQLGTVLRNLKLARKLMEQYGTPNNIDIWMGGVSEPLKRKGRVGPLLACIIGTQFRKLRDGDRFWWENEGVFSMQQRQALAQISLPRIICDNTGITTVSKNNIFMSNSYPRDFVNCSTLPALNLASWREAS
inhibitor, fluorescence; 0.3704 µM: 98.3%
0.0046 µM: 27.3% and 33.7%
3.333 µM: 99.2%

Set 3 — read-out: thermal unfolding; method: differential scanning fluorimetry; tested at: 5.5 µM; reading: higher = more unfolded; quantity: SYPRO Orange fluorescence
Structure (SMILES): C[C@@H]1CN(c2ccc(-c3cc(C(=O)NCCOCCOCCOCCOCCNC(=O)/C=C/c4[nH]cc(C(=O)N[C@@H](CC(N)=O)c5ccc(F)c(Cl)c5)c4-c4ccc(Cl)cc4F)ccc3F)cc2NC(=O)c2c[nH]c(=O)cc2C(F)(F)F)C[C@H](C)N1C
DCAF1: DDB1- and CUL4-associated factor 1 (DCAF1, Homo sapiens, UniProt Q9Y4B6)
Sequence of UniProt Q9Y4B6 (whole entry, looked up): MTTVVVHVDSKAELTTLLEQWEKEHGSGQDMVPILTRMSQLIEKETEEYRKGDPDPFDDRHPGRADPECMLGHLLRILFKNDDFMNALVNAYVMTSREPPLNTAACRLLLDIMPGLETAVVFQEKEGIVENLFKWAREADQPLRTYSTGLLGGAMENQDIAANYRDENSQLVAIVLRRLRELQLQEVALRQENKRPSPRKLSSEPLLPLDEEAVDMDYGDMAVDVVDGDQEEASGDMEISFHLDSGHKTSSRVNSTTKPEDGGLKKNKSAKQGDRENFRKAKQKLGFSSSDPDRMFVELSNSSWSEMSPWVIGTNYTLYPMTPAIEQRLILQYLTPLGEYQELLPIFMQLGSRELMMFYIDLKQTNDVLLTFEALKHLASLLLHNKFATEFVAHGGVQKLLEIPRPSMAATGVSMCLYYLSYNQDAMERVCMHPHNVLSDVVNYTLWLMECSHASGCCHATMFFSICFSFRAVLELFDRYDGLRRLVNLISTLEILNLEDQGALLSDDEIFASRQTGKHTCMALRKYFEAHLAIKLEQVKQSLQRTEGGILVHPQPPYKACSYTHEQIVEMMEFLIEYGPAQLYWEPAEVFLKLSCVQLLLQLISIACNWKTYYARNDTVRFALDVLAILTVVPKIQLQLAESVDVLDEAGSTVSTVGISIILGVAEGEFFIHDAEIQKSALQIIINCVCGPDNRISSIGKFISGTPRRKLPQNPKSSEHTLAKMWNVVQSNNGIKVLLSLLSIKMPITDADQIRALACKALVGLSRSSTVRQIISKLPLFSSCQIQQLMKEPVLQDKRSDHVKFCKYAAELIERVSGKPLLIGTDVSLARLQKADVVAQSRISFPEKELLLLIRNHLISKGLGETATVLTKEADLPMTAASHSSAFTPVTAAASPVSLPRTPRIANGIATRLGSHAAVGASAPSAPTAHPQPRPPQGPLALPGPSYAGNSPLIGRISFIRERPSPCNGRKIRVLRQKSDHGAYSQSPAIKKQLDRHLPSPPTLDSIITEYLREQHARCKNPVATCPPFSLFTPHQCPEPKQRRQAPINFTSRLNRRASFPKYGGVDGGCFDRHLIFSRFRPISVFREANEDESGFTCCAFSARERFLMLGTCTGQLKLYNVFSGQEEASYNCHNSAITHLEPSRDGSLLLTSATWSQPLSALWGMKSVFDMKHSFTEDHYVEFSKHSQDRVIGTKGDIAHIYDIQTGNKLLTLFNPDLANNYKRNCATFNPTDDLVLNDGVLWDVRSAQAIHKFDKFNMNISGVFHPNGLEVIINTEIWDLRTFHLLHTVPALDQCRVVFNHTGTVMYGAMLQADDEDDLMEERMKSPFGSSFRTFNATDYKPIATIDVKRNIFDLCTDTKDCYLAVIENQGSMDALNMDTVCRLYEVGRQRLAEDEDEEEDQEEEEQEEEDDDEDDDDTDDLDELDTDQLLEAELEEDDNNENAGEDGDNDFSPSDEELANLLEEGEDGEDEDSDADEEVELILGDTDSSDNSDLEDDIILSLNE
WDR5: WD repeat-containing protein 5 (WDR5, Homo sapiens, UniProt P61964)
DCAF1; 93.41 °C: 31200 a.u.
WDR5; 52.01 °C: 16800 a.u.
WDR5; 34.4 °C: 13200 a.u.
DCAF1; 25 °C: 9030 a.u.
WDR5; 63.01 °C: 14300 a.u.
DCAF1; 62.41 °C: 51700 a.u.
WDR5; 46.6 °C: 15600 a.u.
DCAF1; 53.41 °C: 18500 a.u.
DCAF1; 88.81 °C: 36300 a.u.
WDR5; 81.21 °C: 43900 a.u.
WDR5; 29.8 °C: 12700 a.u.

Set 4 — quantity: inhibition
SMILES: O=C(O)C1(O)Oc2cc(Br)ccc2N(Cc2ccccc2)C1=O (stereo not shown)
Arabidopsis thaliana; root length; Col-0; 3.13 µg/mL, 7 days, seed germination, dark: 10.6%
Arabidopsis thaliana; hypocotyl length; Col-0; 3.125 µg/mL, 7 days, seed germination, dark: 0.8%
Arabidopsis thaliana; hypocotyl length; Col-0, seedlings; 3.125 µg/mL: -0.765%
Arabidopsis thaliana; root length; Col-0, seedlings; 12.5 µg/mL; relative to: water control: 28.1%
Arabidopsis thaliana; hypocotyl length; Col-0, seedlings; 25 µg/mL: 18.2%
Arabidopsis thaliana; hypocotyl length; Col-0; 6.25 µg/mL, 7 days, seed germination, dark: 3%
Alopecurus aequalis; fresh weight; 150 g ai/ha, pre-emergence treatment: 90.7% and 84.6% and 85.7%
Arabidopsis thaliana; root length; Col-0, seedlings; 6.25 µg/mL: 19.8%
Triticum aestivum; fresh weight; soil surface spray, 150 g ai/ha, 21 days, pre-emergence crop safety: 8.5% and 6.2% and 7.8%
Arabidopsis thaliana; hypocotyl length; Col-0, seedlings; 6.25 µg/mL: 3.01%
Setaria viridis; fresh weight; 150 g ai/ha, pre-emergence treatment: 68.5% and 67.3% and 62.5%
Arabidopsis thaliana; hypocotyl length; Col-0, seedlings; 50 µg/mL: 35.3%
Arabidopsis thaliana; root length; Col-0; 25.0 µg/mL, 7 days, seed germination, dark: 41.7%
Arabidopsis thaliana; root length; Col-0, seedlings; 100 µg/mL; relative to: water control: 89.7%
Arabidopsis thaliana; root length; Col-0, seedlings; 100 µg/mL: 89.7%

Set 5 — cell line: MDA-MB-468; read-out: cell viability; method: CellCounting-Lite; tested at: 0.9145 nM; temperature: 37 °C; reading: higher = more viable cells; quantity: luminescence signal
CCn1cnc2c(NCc3nc4cc(Cl)c(Cl)cc4[nH]3)nc(N3CCC(NC(C)=O)CC3)nc21: 450000 a.u. and 449000 a.u. and 466000 a.u.
CCn1cnc2c(NCc3nc4cc(Cl)c(Cl)cc4[nH]3)nc(N3CCN(C(=O)[C@H](C)NC(C)=O)CC3)nc21: 489000 a.u. and 507000 a.u. and 474000 a.u.
CCn1cnc2c(NCc3nc4cc(Cl)c(Cl)cc4[nH]3)nc(N3CCN(C(=O)c4cccnc4)CC3)nc21: 411000 a.u. and 366000 a.u. and 317000 a.u.
CCn1cnc2c(NCc3nc4cc(Cl)c(Cl)cc4[nH]3)nc(N3CCN(c4ccccn4)CC3)nc21: 421000 a.u. and 443000 a.u. and 463000 a.u.
CC(=O)N1CCN(c2nc(NCc3nc4cc(Cl)c(Cl)cc4[nH]3)c3ncn(C)c3n2)CC1: 402000 a.u. and 505000 a.u. and 446000 a.u.
CCn1cnc2c(NCc3nc4cc(Cl)c(Cl)cc4[nH]3)nc(N3CCN(C(=O)c4ccncc4)CC3)nc21: 354000 a.u. and 319000 a.u. and 361000 a.u.
CCn1cnc2c(NCc3nc4cc(Cl)c(Cl)cc4[nH]3)nc(N3CCN(Cc4ccncc4)CC3)nc21: 481000 a.u. and 434000 a.u. and 553000 a.u.
CCn1cnc2c(NCc3nc4cc(Cl)c(Cl)cc4[nH]3)nc(N3CCN(C(=O)CNC(C)=O)CC3)nc21: 510000 a.u. and 410000 a.u. and 416000 a.u.
CCCCOc1nc(NCc2nc3cc(Cl)c(Cl)cc3[nH]2)c2ncn(CC)c2n1: 487000 a.u. and 510000 a.u. and 451000 a.u.

Set 6 — cell line: U-87 MG; tested at: concentration not given; relative to: DMSO; quantity: log2 fold change
Structure (SMILES): CCN1/C(=C/C=C2\CCCC(/C=C/C3=[N+](CC)c4ccccc4C3(C)C)=C2NCCCCCCCCN2CCC(Nc3nc4ccccc4n3Cc3ccc(F)cc3)CC2)C(C)(C)c2ccccc21
refers to: CAMKK1 mRNA: -2.16
refers to: LRRC32 mRNA: -2.49
refers to: RNF182 mRNA: -1.39
refers to: CADPS mRNA: -0.892
refers to: HBEGF mRNA: 0.913
refers to: IRF7 mRNA: 1.18
refers to: IFT122 mRNA: -0.918
refers to: CLEC11A mRNA: -1.16
refers to: KIF22 mRNA: -1.63
refers to: IRS2 mRNA: 1.6
refers to: TAGLN2 mRNA: -1.09
refers to: TGFB3 mRNA: -3.12
refers to: CCDC34 mRNA: -1.5
refers to: GSN mRNA: -0.918
refers to: UCP2 mRNA: -1.69
refers to: CNIH2 mRNA: -2.02

Set 7 — read-out: enzyme activity; action: inhibitor; method: Ub-TR-FRET; matrix: HECT domain; tested at: 0.005081 µM; reading: higher = more chain formation; quantity: ubiquitin chain formation AUC
Target: E3 ubiquitin-protein ligase NEDD4, HECT domain (Homo sapiens, UniProt P46934)
Residues (P46934 938-1319, limits assumed): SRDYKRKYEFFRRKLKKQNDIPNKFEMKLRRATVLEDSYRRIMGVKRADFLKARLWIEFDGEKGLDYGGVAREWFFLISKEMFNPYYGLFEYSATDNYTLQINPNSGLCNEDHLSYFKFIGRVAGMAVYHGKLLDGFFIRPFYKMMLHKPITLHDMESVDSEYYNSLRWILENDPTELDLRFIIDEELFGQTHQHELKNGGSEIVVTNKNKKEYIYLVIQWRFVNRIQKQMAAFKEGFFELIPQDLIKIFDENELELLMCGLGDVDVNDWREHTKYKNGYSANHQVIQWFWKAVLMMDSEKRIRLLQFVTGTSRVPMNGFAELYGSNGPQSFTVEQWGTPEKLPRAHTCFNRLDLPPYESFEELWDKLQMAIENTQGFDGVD
N#C/C=C/CNCCCCN1c2ccccc2CCc2ccc(Cl)cc21.O=C(O)/C=C\C(=O)O: 92600 a.u. and 93400 a.u. and 101000 a.u. and 102000 a.u. and 103000 a.u. and 90000 a.u.
Cl.NC(=O)/C=C/CNCCCN1c2ccccc2CCc2ccc(Cl)cc21: 139000 a.u. and 137000 a.u. and 138000 a.u.
CONC(=O)/C=C/CNCCCCN1c2ccccc2CCc2ccc(Cl)cc21.O=C(O)/C=C\C(=O)O: 38400 a.u. and 38800 a.u. and 63700 a.u. and 64000 a.u. and 39200 a.u.
CCOC(=O)/C=C/CNCCCCN1c2ccccc2C(=O)N(C)c2ccc(Cl)cc21.O=C(O)/C=C\C(=O)O: 98500 a.u. and 98000 a.u. and 99100 a.u.
CCOC(=O)/C=C/CNCCCN1c2ccccc2CCc2ccc(Cl)cc21: 42900 a.u. and 43300 a.u. and 44400 a.u.

Other studies, line by line
Cc1ncsc1-c1ccc(C(CO)NC(=O)C2CC(O)CN2C(=O)C(NC(=O)c2ccc(COc3c(-c4c(C)c(F)cc5[nH]ncc45)c(C4CC4)cc4c(N5CC6CC5CN6)nc(OC5CCOCC5)nc34)cc2)C(C)C)cc1 (stereo not shown) — viability (AsPC-1; CellTiter-Glo; 300 pM, 6 days): 90.6% and 90.3% and 84.8%
Ic1ccc(Nc2nc(NCCN3CCOCC3)nc(N3CC4CCC(C3)O4)n2)cc1 — GCase activity (Gaucher fibroblasts L444P/L444P; 4-MUG hydrolysis, cell lysate; 1 µM; relative to: DMSO): 99.2% and 97.8% and 98.6% and 99.9% and 105%
Cc1ncsc1-c1ccc(C2(NC(=O)C3CC(O)CN3C(=O)C(NC(=O)c3ccc(COc4c(-c5c(C)c(F)cc6[nH]ncc56)c(C5CC5)cc5c(N6CC7CC6CN7)nc(OC6CCOCC6)nc45)cc3)C(C)C)CC2)cc1 (stereo not shown) — phospho-ERK1/2 level (AsPC-1; in-cell ELISA; 10 µM, per-experiment values): 10.2% and 11.6% and 7.41%
Cc1nc(C)c(C=[N+]([O-])C(C)(C)C)nc1C — stride length (footprint test; MPTP-induced Parkinson's disease mouse model; 10 mg/kg): 5.39 cm and 5.61 cm and 5.93 cm and 6.81 cm and 7.3 cm and 6.45 cm and 7.65 cm and 6.23 cm
Cc1ncsc1-c1ccc(C(CO)NC(=O)C2CC(O)CN2C(=O)C(C(C)C)n2cc(-c3ccc(COc4c(-c5c(C)c(F)cc6[nH]ncc56)c(C5CC5)cc5c(N6CC7CC6CN7)nc(OC6CCOCC6)nc45)cc3)nn2)cc1 (stereo not shown) — tumour volume (GP5d xenograft, mouse; 30 mg/kg once weekly, day 14): 188 mm3 and 212 mm3 and 167 mm3 and 222 mm3 and 252 mm3
Cc1ccc(Nc2nc(NCCN3CCOCC3)nc(N3CCOCC3)n2)cc1 — GCase activity (Gaucher fibroblasts L444P/L444P; 4-MUG hydrolysis, cell lysate; 0.1 µM; relative to: DMSO): 97.8% and 112% and 99.2% and 108% and 95.9% and 94.1%
Cc1ncsc1-c1ccc(C2(NC(=O)C3CC(O)CN3C(=O)C(NC(=O)c3ccc(COc4c(-c5c(C)c(F)cc6[nH]ncc56)c(C5CC5)cc5c(N6CC7CC6CN7)nc(OC6CCOCC6)nc45)cc3)C(C)(C)C)CC2)cc1 (stereo not shown) — phospho-ERK1/2 level (AsPC-1; in-cell ELISA; 3 µM, individual replicates): 22% and 11.4% and 19.5% and 16.4% and 9.45% and 9.25%

Repeated from above (set 3):
DCAF1; 93.41 °C: 31200 a.u.
DCAF1; 62.41 °C: 51700 a.u.
DCAF1; 53.41 °C: 18500 a.u.
WDR5; 29.8 °C: 12700 a.u.
WDR5; 63.01 °C: 14300 a.u.
